Experimental data pooled from the literature.
Every numbered part comes from another study and shows a few of its results, in no order.

Study 1
Target: Interferon regulatory factor 3, full length, phosphomimetic (IRF3, Homo sapiens, UniProt Q14653, residues 1-427, S386D/S396D/S398D/S402D/T404D/S405D)
UniProt Q14653, sequence (whole entry, unmodified, looked up): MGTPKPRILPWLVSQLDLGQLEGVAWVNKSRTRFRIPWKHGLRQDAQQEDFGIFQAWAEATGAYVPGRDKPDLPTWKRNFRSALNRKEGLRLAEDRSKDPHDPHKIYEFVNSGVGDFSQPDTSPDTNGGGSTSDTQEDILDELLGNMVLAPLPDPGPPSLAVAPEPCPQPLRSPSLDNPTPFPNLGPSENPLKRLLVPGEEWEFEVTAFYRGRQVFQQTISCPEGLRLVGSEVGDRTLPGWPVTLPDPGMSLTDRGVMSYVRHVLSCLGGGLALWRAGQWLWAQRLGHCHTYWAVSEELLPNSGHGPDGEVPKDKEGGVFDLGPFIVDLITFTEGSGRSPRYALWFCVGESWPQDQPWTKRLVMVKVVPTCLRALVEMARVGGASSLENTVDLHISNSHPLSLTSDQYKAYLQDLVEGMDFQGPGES
Technique: protein-binding microarray
Molecule type: double-stranded DNA, one strand shown
Medium: in vitro
Concentration: 2540 nM top
Setting: 60-bp whole probe
With: salmon DNA 0.4 mg/ml
Baseline: random background probes
Reading: higher = stronger binding
All sequences stand within: GCCTAGCAC … GTCTTGATTCGCTTGACGCTGCTG
| Strand | fitted relative affinity [z-score] |
| --- | --- |
| GACGGTATCGACTTTCGGGATGTGCTA | 1.59 |
| TTCGGACTGGACTTTCGGTTAGTGCTA | 1.02 |
| TCATCCTTTACTTTCTTACTGTGCTAG | 1.87 |
| TTAGGACTGGGTTCCGGTTAGTGCTAG | 0.595 |
| TCAGGACTGGACTATCGGTTAGTGCTA | -0.238 |
| GAGGAACTGGGGTATCGAGACGTGCTA | -0.903 |
| TTAGGTTGCCTTTTCCTTTAGTGCTAG | 6.97 |
| GACGATCTCAGTATTGAGACGTGCTAG | 0.533 |
| GTAGGTATCGGACTGGGTTAGTGCTAG | 1.13 |
| GGCGGACTGGACTATCGGGACGTGCTA | -0.838 |
| TTAGAACTGATACTGGATTAGTGCTAG | 0.954 |
| TTAGGGCTGGGGTATCGGTTAGTGCTA | -0.371 |
| GACGGTATCGACCATCGGGACGTGCTA | 0.283 |
| TCAACTTTCTACTTCTCACTGTGCTAG | 1.54 |
| TTAGGTTTCGCTATCGGTTAGTGCTAG | 6.02 |
| TCACCTTTCTCCATGGGACTGTGCTAG | 5.32 |
| GACGGTATCCTTCTCCTAACGTGCTAG | 6.8 |
| GACGATATCAGTCTCGACACGTGCTAG | 1.25 |
| TTAGATATCGGGACTGGAGTAGTGCTA | -0.206 |

Study 2
Target: RING finger protein unkempt homolog, zinc fingers 1-6, SBP tag (UNK, Homo sapiens, UniProt Q9C0B0, residues 30-357)
UniProt Q9C0B0, sequence (30-357, looked up): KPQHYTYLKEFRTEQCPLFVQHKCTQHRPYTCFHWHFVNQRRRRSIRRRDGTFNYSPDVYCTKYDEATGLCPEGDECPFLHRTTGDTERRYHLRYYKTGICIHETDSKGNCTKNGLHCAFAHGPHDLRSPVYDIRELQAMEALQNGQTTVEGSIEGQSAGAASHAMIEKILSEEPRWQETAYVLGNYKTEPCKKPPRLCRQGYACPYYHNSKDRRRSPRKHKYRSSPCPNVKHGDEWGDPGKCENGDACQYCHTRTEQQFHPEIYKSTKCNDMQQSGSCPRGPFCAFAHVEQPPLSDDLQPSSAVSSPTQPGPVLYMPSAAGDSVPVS
Technique: RNA Bind-n-Seq
Molecule type: RNA
Medium: in vitro
Concentration: 100 nM
Setting: RNA with constant flanks, vertebrate orthologous sites, ends assumed
Baseline: input RNA pool
Reading: higher = stronger binding
All sequences stand within: GGGAGUUCUACAGUCCGACGAUC … CAACAGAGGAUUGAGCAUCA
| Strand | bound/input enrichment [ratio] |
| --- | --- |
| CAAUUCAAUGGUUGAGGGCUCAGAACUCAAAAAGGUUCGCUCCAACUCCAGGAUUUACCAUAGGUAUUUUUUACUGGAUGCCGACAUGCAGAGCCUGAGGUGGGAACCAUCUAAGAAGGA | 0.114 |
| AUCCCUCAGUGACAGUAUGCCAUCUGUAGCAGAUUCUCACUCUAGUCAUUUUUCUGAAUUUAGUUGUUCUGACCUAGAAAGCAUGAAAACUUCUUGCAGUCAUGGUUCCAAUGAUUAUCA | 1.59 |
| AUUCAAGCCCGUCGUGCCCUGGCCUCAUGUCGAAGGCGUAGAAGUGGACUUGGAGUCUAUUAGAAGGAAAAACAAGGCCGGACCGGAGCAGGAGCGCCGCGCUGGGGGAGGGGACAACCA | 0.557 |
| UUUUUUUUUUUGCACAUGACAGUGUUUGUAUUGAGGACCUUCCAAGGAAGAGGGGUGCUGUGGCAGUGGUGCCUGGGUGCCUGGUCUCCAGUGUCCCACCUCCUUCACCACCCCACUUGG | 0.271 |
| CUCUAUGGGCCUCGCAGAGUUGAAAUAAUGGAAGAGGAAAGUGAACAGUAAUCUUCAUUUUAGUAUUUAUGUUUAGGUGUGAAAUAAAUGUUAUUUGUUGACCAUUUGUGUAAUCCAGAG | 1.11 |
| CUGAAGCUUUGUGUUUGGCUGCACUUGCAUAAGCUGCUACAAAUAGAAUAAAGAAUUUCAUAGCCUGUAUCUAUCAUUUAGAUGCAUGGAAAAAAAUGGGCUUUGCACACAAUGGGUUUG | 1.75 |
| AUAGAAAAGCCACCUUUUAUUCCCAUCCCUCCCAAUCUCCUCCCCUCAAUUCCAAAUACUCUAUUUUUGGGUUCUUGUUUUAGACUUCAUUAUUAAAUAAAUCGACAGUUUUAAUUUUCA | 1.39 |
| UCGGUUUAUAGCUGCUCUGAUUUAUUGCUCAUUUGCCUCUUGCAGCUUUACAUAUCUGAAAUCUUGACUUUGGUUUGAAAUGGCAUCCAAACCAGGCUGUUACUAUCAGACUUCCUAGAA | 0.332 |

Study 3
Target: RNA binding protein fox-1 homolog 2, RRM domain, GST-SBP tag (RBFOX2, Homo sapiens, UniProt O43251-10, residues 100-194)
Technique: RNA Bind-n-Seq
Molecule type: RNA
Medium: in vitro
Concentration: 365 nM
Setting: natural RNA segment, single round, ends assumed
Baseline: no-protein control
Reading: higher = stronger binding
All sequences stand within: GGGAGUUCUACAGUCCGACGAUC … UGGAAUUCUCGGGUGCCAA
Target sequence (chain): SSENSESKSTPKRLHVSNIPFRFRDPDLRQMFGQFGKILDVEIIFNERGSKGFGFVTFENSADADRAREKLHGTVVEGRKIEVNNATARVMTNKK
| Strand | RBNS enrichment (R) |
| --- | --- |
| CCACUUUAUUCAACUCCUUUACUUUCCUAGCCGGUUGAGGAGGGACCAUGAGAACAGAAAUUACCUUGUGACAAGACAAGUGUUCUCAGUUUUCUCCUCACAUAUUGACG | 0.456 |
| UCUUCACCUUGGUUUAUGAGAACUGGUUCUUGCCUUCCCCUUGAACCUCAUUAAAUGGUGAUUUCUUGCUAAGCUCCAGCCCGAGUGGUCUCCUCUCAGCUUCUAAUUUU | 0.628 |
| GUAUGCACAUUUGGGGGUAUAUCUAUUUCUGAAGAGGUAAGCUGAUCAAAAUAAAUAGAGUGUAAAUUCUUUUUAAUGCUUUAGUGAUUAAAUGUUUUAGUAUUUUGAAC | 0.671 |
| GCAGCUUCCUUGACAGACAGGUUCUUGGACCCAGGCACCAACAUUCCAAGGGACACCAGCCAACCUGGGUGAGGGCCCGACUCUGUAUGUCUUCCCUUCCCUGGGGGGGG | 0.338 |
| UGGCUUAUUUUAAUGUGAUGAUGUAAUUGAUGGUUUUUUAUUAUUGUGGUAGGCCUUUUAACAUUUUGUUCUUACACAUACAGUUUUAUGCUCUUUUUUACUCAUUGAAA | 0.563 |
| UGCUGGCUUUUAGUGGUGUGUGUAGUUUGCUUGUAAGGGUGGGUUUGGCCCUGCAGGCCAGCUGUUUUAAUAAAGUGGGCACAUUCCCUCAUUUGGUGCCUUUUGUUAGG | 1.19 |
| AGAUACUCUAGGAUGAUCACUUGUGCUUAGCUUAGCAUUGUAACUCUUUAAGUCUAUAUUUUCCUCAGUGCGUUUCUUUACAAUUUCAAAUGUUACCCUGAUUGUUUAUA | 0.516 |
| CCCUAAUGCUGGUCUCUGCUCCACUCCCCGGCUUCCCGUGAGGCAGGAGGCAGAGCCACAGCCAAGGCCCUGACCACUUCUGUGCCAGUUGUCUAAGCAGAGCGCCUCAG | 0.167 |

Study 4
Target: Histone acetyltransferase KAT6A, both winged helices, GST fusion (KAT6A, Homo sapiens, UniProt Q92794, residues 1-181)
Technique: protein binding microarray
Molecule type: double-stranded DNA, one strand shown
Medium: in vitro
Concentration: not given
Setting: 8-mer, flanks averaged, mean of 2 arrays, mostly near background
Baseline: not given
Reading: higher = stronger binding
Construct (chain): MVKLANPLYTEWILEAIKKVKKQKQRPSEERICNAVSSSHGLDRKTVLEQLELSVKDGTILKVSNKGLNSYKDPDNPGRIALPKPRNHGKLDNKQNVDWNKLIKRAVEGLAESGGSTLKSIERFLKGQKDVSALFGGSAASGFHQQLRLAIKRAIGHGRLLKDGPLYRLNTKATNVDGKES
| Strand | E-score |
| --- | --- |
| CTGTTTGA | -0.157 |
| CATCAATC | -0.0241 |
| TAGCTACA | -0.0996 |
| CTGAGTCA | -0.0419 |
| ACTTACTA | -0.219 |
| CGAAAACA | 0.0486 |
| ACACTCGA | 0.0073 |
| AAGAATGG | -0.0898 |
| TCTCAAAA | -0.196 |
| AGCGGCGC | 0.317 |
| GATCCATA | 0.0351 |
| ACCTCACA | -0.101 |
| GCGGTAAC | 0.26 |
| AGGAGACA | -0.118 |
| AACTTATT | -0.0288 |
| AAGGGTAC | -0.172 |

Some of these lines once more (study 1):
| Strand | fitted relative affinity [z-score] |
| --- | --- |
| GTAGGTATCGGACTGGGTTAGTGCTAG | 1.13 |
| GGCGGACTGGACTATCGGGACGTGCTA | -0.838 |
| TTAGAACTGATACTGGATTAGTGCTAG | 0.954 |
| TTAGGGCTGGGGTATCGGTTAGTGCTA | -0.371 |
| GACGGTATCGACCATCGGGACGTGCTA | 0.283 |
| TCAACTTTCTACTTCTCACTGTGCTAG | 1.54 |
| TTAGGTTTCGCTATCGGTTAGTGCTAG | 6.02 |
| TCACCTTTCTCCATGGGACTGTGCTAG | 5.32 |
